# Experimental data of several laboratories.
# Each line is one published result; not all experiments were run side by side. “And” joins repeats or separate records; there may be more than shown. ± marks the error that the study gave.
# SUV39H1: Histone-lysine N-methyltransferase SUV39H1 (SUV39H1, Homo sapiens, UniProt O43463)
# Sequence of UniProt O43463 (whole entry, looked up): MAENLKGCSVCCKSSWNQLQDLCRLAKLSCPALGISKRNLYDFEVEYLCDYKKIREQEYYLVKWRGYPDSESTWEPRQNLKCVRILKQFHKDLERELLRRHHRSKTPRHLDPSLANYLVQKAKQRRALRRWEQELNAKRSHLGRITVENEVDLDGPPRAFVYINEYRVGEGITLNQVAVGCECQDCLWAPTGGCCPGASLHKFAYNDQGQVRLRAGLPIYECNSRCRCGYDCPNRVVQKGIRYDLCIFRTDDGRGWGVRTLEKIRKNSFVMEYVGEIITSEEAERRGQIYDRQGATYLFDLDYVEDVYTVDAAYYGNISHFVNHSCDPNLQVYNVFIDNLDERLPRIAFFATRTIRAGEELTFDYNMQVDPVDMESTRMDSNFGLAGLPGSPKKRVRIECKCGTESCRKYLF
# HDAC5: Histone deacetylase 5 (HDAC5, Homo sapiens, UniProt Q9UQL6)
# Sequence of UniProt Q9UQL6 (whole entry, looked up): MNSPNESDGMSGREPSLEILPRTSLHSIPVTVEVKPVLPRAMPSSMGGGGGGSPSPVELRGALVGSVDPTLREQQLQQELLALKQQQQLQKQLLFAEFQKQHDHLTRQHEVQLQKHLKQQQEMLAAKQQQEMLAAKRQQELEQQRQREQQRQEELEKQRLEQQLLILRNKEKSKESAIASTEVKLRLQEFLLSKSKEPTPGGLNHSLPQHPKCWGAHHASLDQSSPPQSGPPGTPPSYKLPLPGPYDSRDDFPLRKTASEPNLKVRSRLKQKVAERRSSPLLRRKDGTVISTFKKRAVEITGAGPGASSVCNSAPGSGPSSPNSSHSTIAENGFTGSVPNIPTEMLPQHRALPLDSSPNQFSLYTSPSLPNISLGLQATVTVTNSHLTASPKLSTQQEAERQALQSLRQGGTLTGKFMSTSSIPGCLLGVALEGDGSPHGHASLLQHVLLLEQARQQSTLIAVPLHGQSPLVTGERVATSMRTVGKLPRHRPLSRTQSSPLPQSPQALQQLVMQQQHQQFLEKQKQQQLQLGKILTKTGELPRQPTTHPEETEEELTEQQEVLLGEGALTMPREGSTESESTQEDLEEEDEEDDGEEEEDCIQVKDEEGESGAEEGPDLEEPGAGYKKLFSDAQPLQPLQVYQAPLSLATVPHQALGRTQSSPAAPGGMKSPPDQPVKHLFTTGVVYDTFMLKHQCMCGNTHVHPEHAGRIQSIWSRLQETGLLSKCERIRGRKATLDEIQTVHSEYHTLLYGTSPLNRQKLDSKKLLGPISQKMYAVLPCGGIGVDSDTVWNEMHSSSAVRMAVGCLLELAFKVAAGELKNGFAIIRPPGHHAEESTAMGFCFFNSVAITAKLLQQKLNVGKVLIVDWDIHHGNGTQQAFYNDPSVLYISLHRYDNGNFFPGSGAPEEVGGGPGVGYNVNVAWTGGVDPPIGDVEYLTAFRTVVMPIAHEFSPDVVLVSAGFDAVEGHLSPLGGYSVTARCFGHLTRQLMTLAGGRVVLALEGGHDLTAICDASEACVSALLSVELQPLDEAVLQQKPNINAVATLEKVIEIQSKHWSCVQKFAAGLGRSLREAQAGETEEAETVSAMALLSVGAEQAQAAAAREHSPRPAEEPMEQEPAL
# HDAC1: Histone deacetylase 1 (HDAC1, Homo sapiens, UniProt Q13547)
# Sequence of UniProt Q13547 (whole entry, looked up): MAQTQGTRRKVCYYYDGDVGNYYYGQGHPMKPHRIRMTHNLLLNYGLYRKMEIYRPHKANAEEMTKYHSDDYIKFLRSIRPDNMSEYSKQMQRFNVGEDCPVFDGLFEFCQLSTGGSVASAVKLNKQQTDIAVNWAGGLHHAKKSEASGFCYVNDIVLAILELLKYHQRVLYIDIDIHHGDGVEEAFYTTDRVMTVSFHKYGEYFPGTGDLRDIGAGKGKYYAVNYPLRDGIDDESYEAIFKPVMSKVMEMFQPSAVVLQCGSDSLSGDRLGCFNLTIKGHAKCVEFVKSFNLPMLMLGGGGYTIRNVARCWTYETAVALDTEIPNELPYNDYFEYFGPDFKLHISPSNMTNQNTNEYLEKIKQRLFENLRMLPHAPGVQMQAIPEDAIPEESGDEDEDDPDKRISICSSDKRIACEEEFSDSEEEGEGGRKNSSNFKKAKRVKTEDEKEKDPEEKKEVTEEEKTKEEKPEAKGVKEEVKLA
# SIRT6: NAD-dependent protein deacylase sirtuin-6 (SIRT6, Homo sapiens, UniProt Q8N6T7)
# Sequence of UniProt Q8N6T7 (whole entry, looked up): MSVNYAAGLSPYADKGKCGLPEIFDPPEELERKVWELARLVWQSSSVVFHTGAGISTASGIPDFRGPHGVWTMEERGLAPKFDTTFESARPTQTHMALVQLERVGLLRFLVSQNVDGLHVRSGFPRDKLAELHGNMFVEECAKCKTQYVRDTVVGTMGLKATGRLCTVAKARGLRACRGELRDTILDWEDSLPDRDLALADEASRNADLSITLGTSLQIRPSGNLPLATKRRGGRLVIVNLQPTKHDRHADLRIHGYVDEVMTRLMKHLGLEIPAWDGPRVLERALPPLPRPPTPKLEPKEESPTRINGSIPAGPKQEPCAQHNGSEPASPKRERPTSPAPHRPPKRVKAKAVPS
# CTSL: Procathepsin L (CTSL, Homo sapiens, UniProt P07711)
# Sequence of UniProt P07711 (whole entry, looked up): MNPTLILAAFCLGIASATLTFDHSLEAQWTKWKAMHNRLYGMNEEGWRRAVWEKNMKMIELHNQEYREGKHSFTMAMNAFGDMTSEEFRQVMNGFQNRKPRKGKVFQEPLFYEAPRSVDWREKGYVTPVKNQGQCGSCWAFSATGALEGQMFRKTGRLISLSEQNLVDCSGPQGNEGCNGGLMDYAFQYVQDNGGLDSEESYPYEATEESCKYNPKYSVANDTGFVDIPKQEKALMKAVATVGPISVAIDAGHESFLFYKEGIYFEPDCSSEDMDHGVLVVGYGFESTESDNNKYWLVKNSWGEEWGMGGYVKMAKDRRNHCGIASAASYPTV
# MC4R: Melanocortin receptor 4 (MC4R, Homo sapiens, UniProt P32245)
# Sequence of UniProt P32245 (whole entry, looked up): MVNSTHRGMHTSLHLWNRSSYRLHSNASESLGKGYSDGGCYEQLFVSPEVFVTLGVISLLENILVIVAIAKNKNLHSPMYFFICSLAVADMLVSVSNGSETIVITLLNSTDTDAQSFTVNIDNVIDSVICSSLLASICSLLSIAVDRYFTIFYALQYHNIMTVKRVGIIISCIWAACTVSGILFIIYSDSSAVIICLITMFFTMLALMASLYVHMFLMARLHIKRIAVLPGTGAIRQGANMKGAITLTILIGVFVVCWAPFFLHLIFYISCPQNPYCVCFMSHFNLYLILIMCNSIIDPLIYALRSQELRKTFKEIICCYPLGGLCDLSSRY
# Sequence of UniProt Q9NR20 (whole entry, looked up): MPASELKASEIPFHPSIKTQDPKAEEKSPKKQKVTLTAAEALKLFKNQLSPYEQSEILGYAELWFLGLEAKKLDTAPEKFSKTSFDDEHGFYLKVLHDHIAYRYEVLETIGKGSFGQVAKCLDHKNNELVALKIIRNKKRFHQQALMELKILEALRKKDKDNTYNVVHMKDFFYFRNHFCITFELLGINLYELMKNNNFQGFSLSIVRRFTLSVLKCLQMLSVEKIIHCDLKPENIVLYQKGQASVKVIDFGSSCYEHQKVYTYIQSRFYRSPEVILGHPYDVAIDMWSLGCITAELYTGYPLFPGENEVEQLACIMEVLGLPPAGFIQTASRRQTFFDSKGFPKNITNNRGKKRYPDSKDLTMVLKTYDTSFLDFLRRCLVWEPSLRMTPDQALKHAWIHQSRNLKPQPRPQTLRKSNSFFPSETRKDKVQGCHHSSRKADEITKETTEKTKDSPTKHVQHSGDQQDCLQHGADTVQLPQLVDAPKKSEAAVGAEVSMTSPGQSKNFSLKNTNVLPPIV
# Sequence of UniProt P46734 (whole entry, looked up): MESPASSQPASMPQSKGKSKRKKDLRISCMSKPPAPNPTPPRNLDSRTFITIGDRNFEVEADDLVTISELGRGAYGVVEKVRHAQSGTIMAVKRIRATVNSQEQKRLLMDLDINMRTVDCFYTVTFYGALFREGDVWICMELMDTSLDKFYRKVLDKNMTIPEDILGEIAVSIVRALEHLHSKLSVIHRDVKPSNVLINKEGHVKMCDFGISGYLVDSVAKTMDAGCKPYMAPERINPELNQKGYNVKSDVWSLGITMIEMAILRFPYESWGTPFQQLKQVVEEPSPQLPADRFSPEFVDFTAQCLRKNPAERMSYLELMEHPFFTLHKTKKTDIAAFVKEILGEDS
# Sequence of UniProt P00760 (whole entry, looked up): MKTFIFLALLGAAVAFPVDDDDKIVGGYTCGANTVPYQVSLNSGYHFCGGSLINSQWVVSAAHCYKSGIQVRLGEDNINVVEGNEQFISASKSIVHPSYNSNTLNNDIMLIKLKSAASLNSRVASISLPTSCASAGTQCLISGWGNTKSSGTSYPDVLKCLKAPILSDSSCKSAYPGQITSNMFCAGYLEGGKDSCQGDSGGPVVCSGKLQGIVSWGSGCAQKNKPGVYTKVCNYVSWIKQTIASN
# Sequence of UniProt P01112 (whole entry, looked up): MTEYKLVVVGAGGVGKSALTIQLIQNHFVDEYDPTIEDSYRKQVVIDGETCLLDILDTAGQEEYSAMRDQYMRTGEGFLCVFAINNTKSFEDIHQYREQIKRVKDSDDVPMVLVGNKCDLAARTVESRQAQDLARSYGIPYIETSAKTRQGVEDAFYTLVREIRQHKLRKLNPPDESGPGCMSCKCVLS
# Sequence of UniProt P51677 (whole entry, looked up): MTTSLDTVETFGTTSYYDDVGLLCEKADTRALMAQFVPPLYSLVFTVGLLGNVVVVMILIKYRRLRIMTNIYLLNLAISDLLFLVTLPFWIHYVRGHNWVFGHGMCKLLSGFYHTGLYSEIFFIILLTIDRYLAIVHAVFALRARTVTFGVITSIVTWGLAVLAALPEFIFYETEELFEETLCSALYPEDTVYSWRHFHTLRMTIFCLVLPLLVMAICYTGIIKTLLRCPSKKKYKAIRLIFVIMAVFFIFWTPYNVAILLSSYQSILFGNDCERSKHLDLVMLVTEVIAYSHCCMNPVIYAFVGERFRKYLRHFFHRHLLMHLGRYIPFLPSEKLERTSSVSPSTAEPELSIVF
SMILES,target,test,system,setting,inhibition
CN(C)C/C=C/C(=O)Nc1ccc2nc(NCCCCCN(C)C)nc(NCCCCCCN(C)C)c2c1,SUV39H1,"enzyme activity, inhibitor, radiometric",,50 µM,76%
CC[C@H](C)[C@@H]1NC(=O)[C@H](Cc2ccccc2C(F)(F)F)NC(=O)CCSCc2cccc(n2)CSCCCNC(=O)[C@H](CCCCCC(=O)NO)NC1=O,HDAC5,"enzyme activity, inhibitor, fluorogenic",,30 µM,30%
COc1ncc2nc(C)n(Cc3ncc(S(N)(=O)=O)cc3F)c2c1-c1ccccc1,"Sodium channel protein type 5 subunit alpha (SCN5A, Homo sapiens, UniProt Q14524)","antagonist, cell-based",,10 µM,-1.31%
"CC(=O)C12NC(C)(C)CC1(C)C(=O)C1=C2c2c(c3c4n2C(C)(C)CC2=C4C4(CC(C)(C)NC(C)(C4)C2=O)CC3(C)C)C(=O)C(C)(C)N1 (single isomer, unassigned; (-))","A-type voltage-gated potassium channel KCND2 (KCND2, Homo sapiens, UniProt Q9NZV8)","ion current, inhibitor, patch clamp",HEK-293T,10 µM,19.2%
COc1ccc2nc(C)ccc2c1Nc1sn(C)c(=O)c1C#N,"Nicotinamide phosphoribosyltransferase (NAMPT, Homo sapiens, UniProt P43490)","enzyme activity, inhibitor",,10 µM,2%
CC(C)Cn1c(SCC(=O)N2CCc3ccccc3C2)nc2cc(Cl)ccc2c1=O,sigma receptor 2,radioligand binding,,10 µM,9%
O=C(NO)c1cc(F)cc(OS(=O)(=O)Oc2ccc(Br)cc2)c1,HDAC1,"enzyme activity, inhibitor, fluorescence",,10 µM,22%
Cc1c(COc2cc(OCc3cccc(C#N)c3)c(CNC(C)(CO)CO)cc2Cl)cccc1-c1cccc(OCCCCCC(=O)NO)c1,HDAC1,"enzyme activity, inhibitor",,1 µM,70.5%
C/C=C/C(=O)Nc1ccc2nc(NCCCCCN(C)C)nc(NCCCCCCN(C)C)c2c1,SUV39H1,"enzyme activity, inhibitor, radiometric",,10 µM,32%
COCC(=O)N1CCc2cc(-c3csc(NC(=O)c4cc(OC)cc(OC)c4)n3)ccc21,"Platelet-activating factor receptor (PTAFR, Homo sapiens, UniProt P25105)","ligand displacement, radioligand",,10 µM,23%
CCCCCCCCCCCCCC(=S)NCCCC[C@H](NS(C)(=O)=O)C(=O)N[C@@H](C)C(=O)N[C@@H](CCCNC(=N)N)C(N)=O,SIRT6,"enzyme activity, inhibitor",,10 µM,41%
Cn1ccc2cc(-n3c(=O)[nH]c4sc5c(c4c3=O)CCCC5)ccc21,"Glutamate receptor ionotropic, NMDA 1 (Grin1, Rattus norvegicus, UniProt P35439)",radioligand binding,,"10 µM, NMDA receptor glycine site",19%
CC[C@H](C)[C@H](NC(=O)CN1CC=CCCC(=O)N[C@@H](Cc2ccccc2)C(=O)N[C@@H](CCC(=O)O)C1=O)C(=O)N[C@@H](Cc1ccc(O)cc1)C(=O)N[C@@H](CCCNC(=N)N)C(=O)N[C@@H](CC(C)C)C(=O)N[C@@H](CCC(=O)O)C(=O)N[C@@H](CC(C)C)C(=O)N[C@@H](CC(C)C)C(=O)N[C@@H](CCCCN)C(N)=O,"GTPase HRas, with SOS1 catalytic domain (HRAS, Homo sapiens, UniProt P01112)","Sos-mediated nucleotide exchange, mant-GDP release",,"25 µM, added: Sos 1 µM, GDP 100 µM",< 10%
COc1ccc(S(=O)(=O)N2CCc3ccccc3C2)cc1N1CCN(C(=O)c2ccc(F)cc2C(F)(F)F)CC1,"5-hydroxytryptamine receptor 2C (HTR2C, Homo sapiens, UniProt P28335)","binding, radioligand binding, antagonist site",,1 µM,5.6%
CC[C@@H](N[C@@H](C)CC(N)=O)c1ccc(Cl)c(Oc2ccccc2)c1F,"Serine protease 1 (PRSS1, Bos taurus, UniProt P00760)",enzyme activity,,concentration not given,inactive
C/C1=C\CC/C(C)=C/CC(C)(C)/C=C/C1,"Transient receptor potential cation channel subfamily V member 5 (TRPV5, Homo sapiens, UniProt Q9NQA5)","ion current, inhibitor, outside-out patch clamp",,"100 µM, 5 min",11 ± 7%
O=C1CO[C@H](CNC(=O)C2(c3ccc(Cl)cc3)CC2)CN1C1Cc2ccccc2C1,"C-C chemokine receptor type 3 (CCR3, Homo sapiens, UniProt P51677)","β-arrestin recruitment, antagonist",,1 µM,-14%
Cc1cccc(O[C@H]2CCC[C@@H](C(C)CNCc3ccncc3)C2)c1 (relative stereo),"Dual specificity mitogen-activated protein kinase kinase 3 (MAP2K3, Homo sapiens, UniProt P46734)","enzyme activity, inhibitor",,10 µM,-4%
COC1C(c2ccc(Cl)c(Cc3ccc(OC4CCOC4)cc3)c2)OC(CO)C(O)C1O (stereo not drawn),"Sodium/glucose cotransporter 2 (SLC5A2, Homo sapiens, UniProt P31639)","transporter uptake, inhibitor, radiometric",NIH3T3,0.1 µM,38.3%
Cc1ccc(CNC(=O)[C@H](CCc2ccccc2)NC(=O)[C@H](CC(=O)NCC(C)(C)C)NC(=O)CCc2cccc(F)c2)cc1,CTSL,"enzyme activity, inhibitor",,100 µM,18%
CCn1cc(-c2cccc(C(F)(F)F)c2)c2sc(C(=N)NC3CCS(=O)(=O)CC3)cc2c1=O,"Peregrin (BRPF1, Homo sapiens, UniProt P55201)",,,1 µM,-0.6%
Cc1c(COc2cc(OCc3cccc(C#N)c3)c(CN3CCCC[C@H]3C(=O)O)cc2Cl)cccc1-c1cccc(OCCCCCCC(=O)NO)c1,HDAC1,"enzyme activity, inhibitor",,1 µM,81.4%
NC(=O)c1ccc(C(=O)NOCc2ccccc2)cc1,SIRT6,"enzyme activity, inhibitor, fluorescence",,100 µM,80.5%
O=C1c2sc(-c3ccc(N4CCC(F)C4)nc3F)nc2CCN1c1cccnc1 (stereo not drawn),MC4R,"ligand displacement, radioligand",,1 µM,-7%
CNC(=O)C[C@H](Cc1ccc(C#N)cc1)NC(=O)c1cc(-c2ccc(CN[C@H](C)c3ccc(C)cc3)o2)ccc1Cl,MC4R,"agonist response, antagonist",human cells,"10 µM, MC4 antagonist",4%
C[C@H](NC(=O)[C@H](CC(=O)NCC(C)(C)C)NC(=O)C(=O)c1c[nH]c2ccccc12)C(=O)NCc1ccc(F)cc1F,CTSL,"enzyme activity, inhibitor",,100 µM,-6%
CCC(=O)N(C)c1ccc(Cl)c(Cl)c1,MC4R,"ligand displacement, radioligand",,10 µM,< 10%
CN(Cc1ccc(/C=C/C(=O)NO)cc1)CC12CC3CC(CC(C3)C1)C2,human M5 receptor,antagonist radioligand binding,,0.05 µM,-4%
CC(=O)NCCCC[C@H](NC(=O)[C@H](CCCNC(=N)N)NC(=O)[C@@H]1CCCN1C(=O)[C@H](C)NC(=O)[C@@H](N)CCCCN)C(=O)N[C@@H](CCC(N)=O)C(=O)N[C@@H](CC(C)C)C(=O)N[C@@H](C)C(=O)N[C@H](C(=O)N[C@@H](CCCCN)C(=O)N[C@@H](C)C(=O)N[C@@H](C)C(=O)N[C@@H](CCCNC(=N)N)C(=O)N[C@@H](CCCCN)C(=O)N[C@@H](CO)C(=O)N[C@@H](C)C(=O)N1CCC[C@H]1C(=O)N[C@@H](C)C(=O)O)[C@@H](C)O,CTSL,"enzyme activity, inhibitor",,"25 µM, pH 6.0, 25 °C, added: Z-LR-Mca at 0.16 x Km",68.7 ± 0.2%
CS(=O)(=O)Nc1cccc(-c2csc3cnc(Nc4ccc(N5CCN(CCCCCOc6cccc7c6C(=O)N(C6CCC(=O)NC6=O)C7=O)CC5)cc4)nc23)c1 (stereo not drawn),"Cyclin-dependent kinase 20 (CDK20, Homo sapiens, UniProt Q8IZL9)","probe labelling, inhibitor, KiNativ chemoproteomics",MOLT-4,1 µM,13.4%
C=CCN(CC=C)C(=O)n1ccnn1,"Fatty-acid amide hydrolase 1 (Faah, Mus musculus, UniProt O08914)","serine hydrolase activity, inhibitor, competitive gel-based ABPP",mouse T-cell proteome,"1 µM, 30 min, 37 °C",> 95%
C[Si](C)(C)C[C@@H](CN)CC(=O)O,"Neuromedin-B receptor (NMBR, Homo sapiens, UniProt P28336)","cell-free assay, inhibitor",,75 µM,0%
Cc1c(COc2cc(OCc3cccc(C#N)c3)c(CNC(CO)CO)cc2Cl)cccc1-c1cccc(OCc2ccc(/C=C/C(=O)NO)cc2)c1,HDAC1,"enzyme activity, inhibitor",,1 µM,10.3%
C[Si]1(C[C@H](CN)CC(=O)O)CCCC1,"nicotinic acetylcholine receptor, rat","binding, radioligand binding",,"70 µM, added: [3H]cytisine",-7%
C=CC(=O)Nc1cccc(-c2cnc3[nH]cc(C(=O)NC(C)(C)C)c3n2)c1,"Dual specificity tyrosine-phosphorylation-regulated kinase 4 (DYRK4, Homo sapiens, UniProt Q9NR20)",kinase activity,,0.1 µM,4% and 3%
Cc1ccc(CNC(=O)[C@H](CCc2ccccc2)NC(=O)[C@H](CC(=O)NCC(C)(C)C)NC(=O)c2ccc(OCc3ccccc3)cc2)cc1,CTSL,"enzyme activity, inhibitor",,100 µM,3%
CCn1cc(C(=O)O)c(=O)c2c(N)c(F)c(NC3CCCCC3)cc21,"Dual specificity testis-specific protein kinase 2 (TESK2, Homo sapiens, UniProt Q96S53)",kinase activity,,"0.1 µM, added: ATP at Km",1.3%
Cc1c(COc2cc(OCc3cccc(C#N)c3)c(CNCCO)cc2Cl)cccc1-c1cccc(OCCCCCC(=O)NO)c1,HDAC1,"enzyme activity, inhibitor",,1 µM,72.6%
O=C(/C=C/c1cccc(OS(=O)(=O)Oc2ccc(Br)cc2)c1)NO,HDAC5,"enzyme activity, inhibitor, fluorescence",,10 µM,29%

# A few entries again:
SMILES,target,test,system,setting,inhibition
C=CCN(CC=C)C(=O)n1ccnn1,"Fatty-acid amide hydrolase 1 (Faah, Mus musculus, UniProt O08914)","serine hydrolase activity, inhibitor, competitive gel-based ABPP",mouse T-cell proteome,"1 µM, 30 min, 37 °C",> 95%
C/C=C/C(=O)Nc1ccc2nc(NCCCCCN(C)C)nc(NCCCCCCN(C)C)c2c1,SUV39H1,"enzyme activity, inhibitor, radiometric",,10 µM,32%
Cn1ccc2cc(-n3c(=O)[nH]c4sc5c(c4c3=O)CCCC5)ccc21,"Glutamate receptor ionotropic, NMDA 1 (Grin1, Rattus norvegicus, UniProt P35439)",radioligand binding,,"10 µM, NMDA receptor glycine site",19%
CC[C@H](C)[C@H](NC(=O)CN1CC=CCCC(=O)N[C@@H](Cc2ccccc2)C(=O)N[C@@H](CCC(=O)O)C1=O)C(=O)N[C@@H](Cc1ccc(O)cc1)C(=O)N[C@@H](CCCNC(=N)N)C(=O)N[C@@H](CC(C)C)C(=O)N[C@@H](CCC(=O)O)C(=O)N[C@@H](CC(C)C)C(=O)N[C@@H](CC(C)C)C(=O)N[C@@H](CCCCN)C(N)=O,"GTPase HRas, with SOS1 catalytic domain (HRAS, Homo sapiens, UniProt P01112)","Sos-mediated nucleotide exchange, mant-GDP release",,"25 µM, added: Sos 1 µM, GDP 100 µM",< 10%
NC(=O)c1ccc(C(=O)NOCc2ccccc2)cc1,SIRT6,"enzyme activity, inhibitor, fluorescence",,100 µM,80.5%
